# Published values from different studies.
# Numbered parts are unrelated; each lists some results of a single study.

# Block 1
# Target: RNA binding protein fox-1 homolog 2, RRM domain, GST-SBP tag (RBFOX2, Homo sapiens, UniProt O43251-10, residues 100-194)
# Technique: RNA Bind-n-Seq
# Form: RNA
# Sample: in vitro
# Tested at: 365 nM
# Setting: natural RNA segment, single round, ends assumed
# Reference: no-protein control
# Reading: higher = stronger binding
# All sequences stand within: GGGAGUUCUACAGUCCGACGAUC … UGGAAUUCUCGGGUGCCAA
# Construct (chain): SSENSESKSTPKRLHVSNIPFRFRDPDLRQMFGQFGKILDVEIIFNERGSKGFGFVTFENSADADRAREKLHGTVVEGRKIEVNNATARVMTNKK
Oligonucleotide,RBNS enrichment (R)
GAGAACUCACAGAUCUUUAUAUGAGGACAGUGCUGAGGACUUUCUCAUGGCUCCAUCCUUUUGGUCCCUCGCCACUACCCUUGAAGCUGGCUUCAGUUCCCUGGCUGCUG,0.195
GUAAAUUUGUAUUGUCUCAAUGUACAGUUUAACAGGGAUAGAGGGGAAAUAAUGUCCAUGCCAUUGUGUGUGGAAGAUUUACAGCUAAGCUGUAGUUGCAGAGUACAUGU,0.56
UUCUUUGAAACUCUACAUUUUCCACACGUCUGCUUCAUUUUCAAAAUGAAGGAUGUUUCCCGUAGGUUUUGUGCAGUCCAGUUGCCCUAAAGGACCAACCUGCCUUACGU,0.446
UCAGGCAUCUUCCCUUCACUCAAGCUUGGCUGCUUUCCUAGAUCCACACUUUCAAAGAGAAACCCCUCCAGAACUCCCACCCUGACAGCCCAACACCACCUUCCUCCUGG,0.353
GGAAUGAGGCUGUUGGGGUGUCCUAACCCAGGUCCUUGUGCUUCACUGACAGUUUGCUCACAGGUUAUGUUUGAAUGUCUUAUGGAAGCAGACGUUAUUUUCCGUGAUUC,2.06
ACCCUGGGGGUGUAUUAUAUAUAGUGUAUAUUUUUUCAAUGUUGUCGUGAGCGCAGCUCCUGUGUUUCUGUGUGCAGCUCACAGCCUUGUAUGUGUGCGUGUGCGUGGCA,4.41
UUAGUGCUCUCUCUGCCUGGAUCCCGGCAGAAGCUAUGAAAGGGAAUAAAGAGAAAAGAAGUACCCAGGUCGUGGUGUCUUUGCGCUCUGUCUUUAGGACCGGGGAGAGA,0.743
AGUGCCAAUCUCUCUAGGACCCUUAUAGCUCCCCACUCCCCCCAAAUCAAGUCCCAUGCUCCAAUCUCACCCCUGUCCAGGAUAGGAGCAAACUCAACCAAGAACUGCUC,0.559

# Block 2
# Target: Protein C-ets-1 (ETS1, Homo sapiens, UniProt P14921, residues 1-441, full length assumed)
# Sequence of UniProt P14921 (whole entry, looked up): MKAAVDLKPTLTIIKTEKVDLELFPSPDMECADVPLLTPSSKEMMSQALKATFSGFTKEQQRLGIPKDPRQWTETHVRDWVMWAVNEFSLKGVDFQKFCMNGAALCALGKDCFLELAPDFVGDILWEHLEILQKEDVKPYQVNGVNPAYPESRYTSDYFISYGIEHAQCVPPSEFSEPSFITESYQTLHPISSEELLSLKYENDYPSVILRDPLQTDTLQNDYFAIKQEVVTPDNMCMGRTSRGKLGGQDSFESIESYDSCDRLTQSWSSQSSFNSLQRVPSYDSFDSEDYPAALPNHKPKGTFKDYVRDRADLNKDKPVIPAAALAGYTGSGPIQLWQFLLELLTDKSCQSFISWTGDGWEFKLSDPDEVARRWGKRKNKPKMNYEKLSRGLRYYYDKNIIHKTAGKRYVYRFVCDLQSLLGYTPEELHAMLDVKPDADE
# Technique: protein-binding microarray
# Form: double-stranded DNA, one strand shown
# Sample: in vitro
# Tested at: not given
# Setting: k-mer, scored over probes, only values ≥0.25
# Reading: higher = stronger binding
Oligonucleotide,E-score
CTGGCGGA,0.333
CACCATTA,0.271
CCCGCCGG,0.271
GAAGTAAC,0.271
TACTTCCA,0.346
CGGACACG,0.348
CTTCCCAC,0.304
CACCTTCC,0.32
GGATAGCC,0.276
GTCCGGAA,0.464
AGGCGGAT,0.354
GAGGGGAA,0.318
CCCCGCCG,0.261
CCATCCGA,0.288

# Block 3
# Target: Sal-like protein 4, full length isoform B (SALL4, Homo sapiens, UniProt Q9UJQ4-2, residues 1-616)
# Technique: universal PBM
# Form: double-stranded DNA, one strand shown
# Sample: in vitro
# Tested at: not given
# Setting: 8-mer, flanks averaged, mean of replicates
# Reading: higher = stronger binding
Oligonucleotide,E-score
ATCCGCAG,-0.159
GGCCGCTA,-0.308
GGTGGACA,-0.107
AGATTTTC,0.127
TACCACGA,0.0664
GGTAGATA,0.189
AGCAAAGG,-0.116
CCGCTAAC,-0.219
ACAGCTAC,0.0456
ATCCGAAA,-0.0228
AAACAACG,0.0893
ATGAGGTC,-0.158

# Block 4
# Target: RING finger protein unkempt homolog, zinc fingers 1-6, GST-SBP tag (UNK, Homo sapiens, UniProt Q9C0B0, residues 30-357)
# Sequence of UniProt Q9C0B0 (30-357, looked up): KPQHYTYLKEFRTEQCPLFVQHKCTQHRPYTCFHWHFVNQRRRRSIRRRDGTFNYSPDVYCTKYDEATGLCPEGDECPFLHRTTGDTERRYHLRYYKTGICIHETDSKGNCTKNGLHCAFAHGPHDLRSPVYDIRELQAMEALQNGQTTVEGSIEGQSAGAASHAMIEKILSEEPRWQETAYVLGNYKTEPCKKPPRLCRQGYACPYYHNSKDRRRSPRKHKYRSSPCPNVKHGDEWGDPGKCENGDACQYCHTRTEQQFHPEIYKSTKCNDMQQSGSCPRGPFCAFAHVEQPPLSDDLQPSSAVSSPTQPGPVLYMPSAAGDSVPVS
# Technique: RNA Bind-n-Seq
# Form: RNA
# Sample: in vitro
# Tested at: not given
# Setting: RNA with constant flanks, human and mouse sites, ends assumed
# Reference: input RNA pool
# Reading: higher = stronger binding
# All sequences stand within: GGGAGUUCUACAGUCCGACGAUC … CAACAGAGGAUUGAGCAUCA
Oligonucleotide,bound/input enrichment [ratio]
CCUCUCCCCAGUCUGCUCCUGGAAACUUGGACAAUAGUAAAAGUGGAGAAAUUAAAGGUAAUGGAAGUGGUGGAAGCAGAGAAAAUAGUACUGUUGACUUCAGCAAGGUUGAUAUGAAUU,0.897
CGAUUUUUUUAUAAAGAGAAGGAAUCUGUGAAUGCCAAAGUUCUUAAGGAUGUUAAAUUUCCUCUUAUGUUGGAUAUGUAUGAACUGUGUACACCAGAACUUCAAGAGAAAAUGGUGUCU,0.345
AAGCCCUACCAACAGCUACAGAAUAUCAUAUGCUAUGACUGUGUUGCCUUUUUUUUUAGCUAGUUUUCAUUGUGUUCUGUUUUCACUCUUGAUAAGUAAAAAACUCUGAAAUUGCCACUG,1.9
GUUGAGUUGGCUUUGGUUGUCAUGAAGGAUCUUAGUCAGAAUUUUCCUACCAAAGCCAGAGCAAUAACAAAAACAGCUGUGAGCUCAGAACUUAGAACCGAAGUGGAAGAGAAUCAGAAG,0.576
CUCAAGAAAACAUCUUCAAGUGACUAUUCAAUUUUCGACAACUAUUAUAUUCCAGAAAUAACUAGUGUUUUACUACUUCGAUCCUGUAAGACUUUAACCCAUGAGAUCGGACACAUAUUU,1.14
UAUGUGGAGACAGAACUGAUAUUCGCACUGGCUAAAACAAACCGCCUUGCAGAGUUAGAAGAAUUUAUCAAUGGACCAAAUAAUGCUCAUAUCCAACAAGUUGGUGACCGUUGUUAUGAU,9.82
UUUCCAAAAUAAUGAAAUAAGUUUGUUUUGGGGCAUUUUGUGGUUUUGUUUGUUUGUUUUUGUUUUUUAACCAAAAGGUAAAUAAUGCUUAUUUCUGCUUCCUGUUUUCUUGGCUUGACU,0.269
UCCAAUUCAAACUAUAGUACUGUGUAAUUAUGUAUAAAGGUUUUUUUAUUUAUUUGAAAUUAGGUUAGAUAUACAUUUUUAAAUUUAACAUCUGGCUGGACAGUGUUCUAUUAACUCAUU,42.8
UCUUGUAGCCUUUGGUUUUUGUUAAUGUAGAGAAACACAGAUUCUUUAUACACUUUGUAAGAUUUACGCCAAACCCCAGCUCUCGAUCUCUUCUUCUCCCUGUGGCCCCUGCGCUGUUGC,0.46
GAGAGAGUGGAUGGCCCCAAGCACAGUCUCCUUAUGCGUUGAAUAUUGCCAAAUGCUCUUUCUGAAAAUGCUGAAUUGCCUUUUUUGUUUGCAUCCUUUAUUUUUAAUAUUCAUAAUGUC,0.384
AUAAAGACCGAGCAGUACAAAACAGGUCACCACUCGCCUCGAGGACAAACGUUGGAUAGCAUAGACCCUGUGGCCAGGGGUCCCAGCCCCCUGAGUUCUCACAUCAGCCCCGGCAGCUCC,0.153

# Block 5
# Target: Histone acetyltransferase KAT6A, both winged helices, GST fusion (KAT6A, Homo sapiens, UniProt Q92794, residues 1-181)
# Technique: protein binding microarray
# Form: double-stranded DNA, one strand shown
# Sample: in vitro
# Tested at: not given
# Setting: 8-mer, flanks averaged, mean of 2 arrays, mostly near background
# Reference: not given
# Reading: higher = stronger binding
# Target sequence (chain): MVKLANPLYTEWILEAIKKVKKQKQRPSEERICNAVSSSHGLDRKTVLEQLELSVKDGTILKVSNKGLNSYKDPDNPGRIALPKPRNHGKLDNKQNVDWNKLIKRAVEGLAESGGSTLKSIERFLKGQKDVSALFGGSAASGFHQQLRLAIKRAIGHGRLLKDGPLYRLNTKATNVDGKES
Oligonucleotide,E-score
AGGGTCCA,-0.106
GGTTACAA,0.0206
CTTCTATC,-0.0654
AGAGGACA,-0.142
CAAGGATC,-0.084
AAACTTCC,-0.0634
ATGGCTCG,-0.105
CTCATTAA,-0.073
CACATCAA,-0.0608
AAGGCTCT,-0.0748
GCTTTCAC,-0.0596
CCCCGCAC,0.203
AGACCCAA,-0.169
ATTTGTCA,-0.203
AGGGGGTA,-0.25
ATTGGCGA,-0.0197
CGCCGGCA,0.28

# Block 6
# Target: Interferon regulatory factor 5, full length, phosphomimetic (IRF5, Homo sapiens, UniProt Q13568-2, residues 1-514, S451D/S453D/S456D/S462D)
# Technique: protein-binding microarray
# Form: double-stranded DNA, one strand shown
# Sample: in vitro
# Tested at: 940 nM top
# Setting: 60-bp whole probe
# Added: salmon DNA 0.4 mg/ml
# Reference: random background probes
# Reading: higher = stronger binding
# All sequences stand within: GCCTAGCAC … GTCTTGATTCGCTTGACGCTGCTG
Oligonucleotide,fitted relative affinity
TTAGGTTTCGACAATGGGTTAGTGCTA,8.29 z-score
GACGATTTCGGGCCTGGAGACGTGCTA,-0.239 z-score
TTAGATATCTGGTATCGATTAGTGCTA,5 z-score
AATGATTGGTTGAACATGAAGTGCTAG,0.00431 z-score
GACGAACTGAGACGGGAGACGTGCTAG,-0.609 z-score
GACGATTTCGCGTATCGAGACGTGCTA,0.544 z-score
TTATGACTGGGTATCGGTTAGTGCTAG,3.48 z-score
GACGATTTCGGGTATCGAGAGGTGCTA,1.63 z-score
TCAACATTCACCATGGCACTGTGCTAG,0.437 z-score
TCATATTTAAGAACTATGACTGTGCTA,0.114 z-score

# For quick reference, copied from above (block 2):
Oligonucleotide,E-score
CTTCCCAC,0.304
CACCTTCC,0.32
GGATAGCC,0.276
GTCCGGAA,0.464
AGGCGGAT,0.354
GAGGGGAA,0.318
CCCCGCCG,0.261
